# Measured values pooled from the literature.
# Every numbered part comes from another study and shows a few of its results, in no order.

# Set 1
# Organism: Saccharomyces cerevisiae
# Read-out: binding
# Method: yeast competitive growth sequencing
# Molecule type: peptide
# Strain: cyclin D1-Cln2 strain
# Sample: peptide tiling library
# Direction: direction not given
Molecule,enrichment score
SGYLTDENEVGFRG,1.56
ELGMEHCEKFEISETS,1.74
NLEPNAEFDKRTEFIT,1.54
VEEEFFALRKRTPSAG,1.22
TQERKQIHCLSEDELS,1.58
IPDRSTKPVVFSPT,2.58
VKTKKRLNFDDK,-0.377

# Set 2
# Target: Interferon regulatory factor 5, full length, phosphomimetic (IRF5, Homo sapiens, UniProt Q13568-2, residues 1-514, S451D/S453D/S456D/S462D)
# Method: protein-binding microarray
# Molecule type: double-stranded DNA, one strand shown
# Sample: in vitro
# Concentration: 940 nM top
# Setting: 60-bp whole probe
# Added: salmon DNA 0.4 mg/ml
# Relative to: random background probes
# Direction: higher = stronger binding
# Constant ends, left off below: GCCTAGCAC … GTCTTGATTCGCTTGACGCTGCTG
Sequence,fitted relative affinity
GACGGTATCGGTTTGGGGACGTGCTAG,8.4 z-score
GTCGGTCTCGGTCTCGGGACGTGCTAG,6.51 z-score
TCACTTTCAGTTCTCCCACTGTGCTAG,4.59 z-score
TCACCTATTTATATGAGACTGTGCTAG,0.545 z-score
GACGGTCTCAGTATCGAGACGTGCTAG,2.81 z-score
TGGGTTGTAGGTTTTCTGAAGGTGCTA,0.284 z-score
GACGATATCAGACTGGAGGCGTGCTAG,-0.456 z-score
TTAGGTTTCCTTTTCCTCTAGTGCTAG,2.37 z-score
GACGATTTCAGTCTCGAGATGTGCTAG,1.67 z-score
GACGGTTTCAGTTCCGAGACGTGCTAG,5.59 z-score
TTAGGTTTCGGACTGGGTTGGTGCTAG,7.63 z-score
GTCGATTTCAGTATCGAGACGTGCTAG,4.49 z-score
TTAGAACTGGGGACTGCATTAGTGCTA,-0.229 z-score
GGACCGACCCCTCCATCCCTGTGCTAG,-0.0119 z-score
TCCATTTCTGTTTTTGCTTTGTGCTAG,1.98 z-score
CAAACAGAGACCCGGCAAGTGTGCTAG,-0.376 z-score

# Set 3
# Target: RNA binding protein fox-1 homolog 2, RRM domain, GST-SBP tag (RBFOX2, Homo sapiens, UniProt O43251-10, residues 100-194)
# Method: RNA Bind-n-Seq
# Molecule type: RNA
# Sample: in vitro
# Concentration: 365 nM
# Setting: natural RNA segment, single round, ends assumed
# Relative to: no-protein control
# Direction: higher = stronger binding
# Construct (chain): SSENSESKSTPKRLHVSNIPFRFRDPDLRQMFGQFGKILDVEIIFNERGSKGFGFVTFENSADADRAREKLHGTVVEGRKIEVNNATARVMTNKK
Sequence,RBNS enrichment (R)
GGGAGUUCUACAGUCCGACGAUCUCUUGAGCUUGAAUUCACUUCUCUGUCUGUUUCCGGAGCUGGUGAAAUAAAUGUGAUUUUUGUCCGAUCCUUCUGGUUUUCAUGAAGAUUAGCUGCCAUGUUUUAUUCUUUGGAAUUCUCGGGUGCCAA,0.586
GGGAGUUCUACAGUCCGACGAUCAUGUAGGGGACGUCAUGUCGUUUUCAGUGACUGUCACUACCAUCCCUGCCAGUCAAGCAAUGAAUCCCAGCAGCCAUGGCCAGACAAUUCCUGUUCAGACUUUUCCUGAUUGGAAUUCUCGGGUGCCAA,0.375
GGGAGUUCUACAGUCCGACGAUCCUAAUAUUAGUAUUCAUUAUGCAUUUCUAAAUAACAGUCAUUCUGUUUGUCUUUUUAAUGCUUUAUUCAUUAUUGACAUUUGUAGUUGAGGGAUCCGGGGGUUCAAUUUAUGGAAUUCUCGGGUGCCAA,0.948
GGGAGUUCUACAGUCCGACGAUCAAGAUGUUGCACUGGUGGCAAUUCAUCAUGGAACAUAAUAAAAUUAAUUUGACCCAAAUAGUAUAAAUAGUGUGUCUCAUUUGUUAUUAAGAUGUUAAAAUAAGUAGAAAUGGAAUUCUCGGGUGCCAA,0.332
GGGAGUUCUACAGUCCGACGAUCAGCCCAGCCCACCCUGCGACUGGUUCUUGGUUUAAUAAACACAUGUAAGAGUUCUUUCCACCACUGACUAGCAUUUGCUGACAAAUCACUGGACUGGGGUUGGGACCACAUGGAAUUCUCGGGUGCCAA,0.324
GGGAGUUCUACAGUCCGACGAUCAUAUCAAAUGUAUAGUUAUGAACUAGUUAUGAAAUAAUCUUAUGGUUGAGGGUCACCACAACAUGAGGAACUAUAUUAAAGACUCGUGGCAUUAGGAAGGUUGAGAACCAUGGAAUUCUCGGGUGCCAA,0.608
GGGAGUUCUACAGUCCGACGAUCUUCUAAUGAUGCAACAUAGCACAGAAUUACUGUGAUCAGUUUCUCAUCCAUACUGGGAAUUGUCUUGUUUUGAUACUGUGUUUUUCUGUGUUGCUUAAACUUCAAGAAUUUGGAAUUCUCGGGUGCCAA,0.784
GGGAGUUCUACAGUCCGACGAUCUAGGAGCCCCGCGGCCCAGCAGGUGCGGCGCGCACGGAGCGCCCCGGCCGGCGGCUUCUCCCGGAGGCCCCGGCGCCCGCACCCACCCGGCCCGGCCCCGAGAGCAGGCUUGGAAUUCUCGGGUGCCAA,0.822
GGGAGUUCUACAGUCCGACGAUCGCAGUGCAGAUCGGAAUUCCCAUAUGUCUGAGUGGGUAUUUUUAGACAGAAUCCACUCCUAAGUUAGGACAUGGAGCCCAGAUACUAUGAUACCAAAUUCAGGGGUGUCAUGGAAUUCUCGGGUGCCAA,0.254
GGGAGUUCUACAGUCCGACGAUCUGGAAAUAACAGGCGGGCUUCACGGUGCGGCUCUGUCCGCCCAUGCCCCGCUGGGUCUGCAGGGAACUGGACUGUCCCAUGGCCUGUGAGCACCGGAGCGCCUGGCUGCCUGGAAUUCUCGGGUGCCAA,0.262
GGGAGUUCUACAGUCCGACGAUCCCCCAUUCCCCACCUGGUCCUCCCCCUUCCCAUGCUGCCAACUUCUAACCGCAAUAGUGACUCUGUGCUUGUCUGUUUAGUUCUGUGUAUAAAUGGAAUGUUGUGGAGAUUGGAAUUCUCGGGUGCCAA,0.872
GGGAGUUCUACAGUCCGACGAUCUCGUAAUGUUGGAGAUCAGGAAUAUUGGUUGUGAUGACAAGAAAGAGCCCACUUACUCCUCCUCGUUCUAGGACACGGUCAUCUUUCCUUAGGAAAUUAAAAUGCUUCAUUGGAAUUCUCGGGUGCCAA,0.726

# Set 4
# Target: Histone acetyltransferase KAT6A, winged helix 2, GST fusion (KAT6A, Homo sapiens, UniProt Q92794, residues 85-181)
# Method: protein binding microarray
# Molecule type: double-stranded DNA, one strand shown
# Sample: in vitro
# Concentration: not given
# Setting: 8-mer, flanks averaged, mean of 2 arrays, mostly near background
# Relative to: not given
# Direction: higher = stronger binding
# Construct (chain): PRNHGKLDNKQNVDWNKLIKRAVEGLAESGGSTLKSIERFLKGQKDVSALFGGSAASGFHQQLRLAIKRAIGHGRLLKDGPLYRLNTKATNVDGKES
Sequence,E-score
CTGGAGAA,-0.0764
GTAAGCTA,0.00077
GCACATAC,-0.125
ATATTACG,0.0611
TACGTCCA,-0.146
CCGCGTAA,0.0243
CGTGTGAA,0.0741
GTAGGCTA,-0.0441
ACGATGGG,-0.158
CTGATCTC,0.106
CAAAGATG,-0.0326
CGTAGAAG,-0.0552
CGGCAGTA,0.0105
ACCTGGAA,0.0521
TCCTTAAA,-0.121
GAATAGGC,0.0229
CCCACTCG,0.00928
CATAAAGA,-5e-06
AAACTAGG,0.0091
CCTGAAGC,-0.0166
GCGTGTTA,-0.0596
GATGGCAA,0.00447
CACAGTTA,-0.0452

# Other studies, line by line
Substance,target,assay,test system,setting,how to read,quantity,result
"PhoQ, residues 284 288 289 292 302 303 SSTMSV","PhoP, residues 12 14 15 18 19 NHTVL (Escherichia coli, UniProt P23836)","Sort-seq, refers to: YFP reporter",E. coli,"PhoQ-PhoP variant library, added: 10 µM Mg2+","relative to: high Mg2+ state, higher = stronger signaling",fold induction,1.05
